Assay results pooled from the literature.
Numbered parts are unrelated; each lists some results of a single study. Changes are numbered by the printed parent chain.

Series 1 — technique: RNA Bind-n-Seq; molecule type: RNA; sample: in vitro; concentration: not given; relative to: input RNA pool; reading: higher = stronger binding; measurement: bound/input enrichment
Target: RING finger protein unkempt homolog, zinc fingers 1-6, GST-SBP tag (UNK, Homo sapiens, UniProt Q9C0B0, residues 30-357)
Setting: RNA with constant flanks, human and mouse sites, ends assumed
Target sequence (chain): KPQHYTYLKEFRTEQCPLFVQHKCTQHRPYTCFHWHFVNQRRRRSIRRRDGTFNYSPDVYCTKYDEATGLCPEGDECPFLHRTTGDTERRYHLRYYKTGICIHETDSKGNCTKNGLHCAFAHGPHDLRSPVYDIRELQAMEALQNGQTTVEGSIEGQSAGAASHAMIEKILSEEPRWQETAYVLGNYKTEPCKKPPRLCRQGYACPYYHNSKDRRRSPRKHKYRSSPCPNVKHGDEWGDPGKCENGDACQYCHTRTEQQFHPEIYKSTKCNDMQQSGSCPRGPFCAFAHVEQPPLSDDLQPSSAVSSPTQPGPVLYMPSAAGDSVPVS
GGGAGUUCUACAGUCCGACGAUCGAUGCCAUUUAUGGACACCCCCUCUUCCCUCUCUUAGCACUGAUUUUUGAGAAAUGUGAAUUAGCUACUUGUACCCCCCGCGAGCCGGGGGUGGCGGGCGGGGACGUCUGCUCGUCAGAGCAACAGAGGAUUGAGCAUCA: 3.59 ratio
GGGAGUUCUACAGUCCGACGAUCCCUGGGGCUUUGGUGCAGUGCUUGAGGCUACCAAAGUUUGCAGAGGAGGAGACUCUUUGUAUAGACUCUAUAACUCCUUGUGCUGAUGGAAUUCAUUUGUUGGUAGGACUGCGGACAUGCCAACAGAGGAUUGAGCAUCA: 0.124 ratio
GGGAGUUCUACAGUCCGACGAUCGACAGAAAGUACCACCUAAAGACAUACAGACAAUGCUGUGUUGGGACUGAGCUGGUAGACUGGAUGAUACAGCAGACAUCCUGUGUUCACUCGCGGACUCAAGCUGUUGGCAUGUGGCAACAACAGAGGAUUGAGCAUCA: 0.206 ratio
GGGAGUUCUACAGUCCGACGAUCGUGAGAGAACGCCGAGCCGUCGCCGCAGCCUCCGCCGCCGAGAAGCCCUUGUUCCCGCUGCUGGGAAGGAGAGUCUGUGCCGACAAGAUGGCGGACGGGGAGCUGAACGUGGACAGCCUCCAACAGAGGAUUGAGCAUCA: 0.0727 ratio
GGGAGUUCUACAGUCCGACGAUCCCUCCUACCAAGGGUCUCCGCAAGGAGGAACGGCCAGGCCCUGGGCCCGGCGAGGUGCGUAUAGCUUUCCGAAUCUCCAAUGUCCGAGAGCCCCAUUCACCAGAUGGCAACUUACCCAAUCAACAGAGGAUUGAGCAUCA: 0.12 ratio
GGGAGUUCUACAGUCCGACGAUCACCACGCAUCUGUUUUGUCCCACAAUGCGCUUUUCUCUCCCAAAUCCCGAUUUCUGCUGUCAUAGCCUCUAUUCAAUUUUUAUUUAUUGUCUGCCCUCCACUUAUACAAUCGUAGAGAGCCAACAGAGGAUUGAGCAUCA: 5.21 ratio
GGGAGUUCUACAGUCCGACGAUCAAUGGGAAGAAUGAGAGAAGUCAUAUGCCCGGCACAUAUUUGACUACAGUCAUUCCUUAUGAGAAAAAAAACGGACCACCGUCUGUUGAAGAUCUUCAAAUAUUAACAAAAAUUCUUCGUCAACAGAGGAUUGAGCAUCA: 0.221 ratio
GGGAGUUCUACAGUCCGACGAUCGUGUUGAGUUGGCAUUGUACAGAAAUUAACAGCCAUAUUGGUCUAGAAACGUUAAACUUAAUUUUUUUCCAUUUGUACAGGGGUAACGCACUGUAUUAAAUAUGUAAGGUCUUAUCUACACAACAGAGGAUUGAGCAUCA: 3.1 ratio

Series 2 — technique: DHFR PCA, deep sequencing; sample: yeast; with: (+)-ABA 1.4 µM; relative to: wild-type fitted maximum; reading: higher = stronger binding; measurement: relative binding score
Target: ABI1, truncated, D143A, DHFR fusion (Arabidopsis thaliana)
Setting: methotrexate growth selection, single substitutions
Starting sequence: PYL1, truncated, DHFR fusion (Arabidopsis thaliana); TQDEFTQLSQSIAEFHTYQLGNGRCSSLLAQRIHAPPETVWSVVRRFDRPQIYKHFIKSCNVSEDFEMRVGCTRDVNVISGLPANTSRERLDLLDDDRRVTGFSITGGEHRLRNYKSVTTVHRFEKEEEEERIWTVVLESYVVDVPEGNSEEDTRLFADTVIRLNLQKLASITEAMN; partner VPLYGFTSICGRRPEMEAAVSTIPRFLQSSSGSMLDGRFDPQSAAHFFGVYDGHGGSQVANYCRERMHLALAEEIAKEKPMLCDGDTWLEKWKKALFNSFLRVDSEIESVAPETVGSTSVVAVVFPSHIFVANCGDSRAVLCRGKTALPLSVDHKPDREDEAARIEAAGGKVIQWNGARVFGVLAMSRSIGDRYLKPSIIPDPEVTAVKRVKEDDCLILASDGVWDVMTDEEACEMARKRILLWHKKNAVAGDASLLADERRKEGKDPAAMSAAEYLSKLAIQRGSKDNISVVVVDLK
R49F: 6.25%
R69W: 5.47%
Y141A: -9.24%
D3G: 23.1%
I79T: 41.5%
F47R: 4.62%
P37H: -8.41%
D96K: 4.27%
L166K: -3.18%
G71S: -0.336%
I133E: 90%
V137N: 3.87%
S80M: 18.8%
S26E: -12.9%
S171W: 22.7%

Series 3 — target: CCNB2, cyclin fold, Cln2 fusion (human); technique: yeast growth competition, sequencing; sample: yeast; setting: weak parent motif; relative to: not given; reading: higher = stronger binding; measurement: normalised enrichment score
Starting sequence: PPP1R3F docking peptide (human); VAPRRVLFADEAL
VAPRRVLFADAAL [E11A]: 0.363
VAPRKVLFADEAL [R5K]: 0.0308
VAPRRVLAADEAL [F8A]: -0.175
VAPRRVLFAAEAL [D10A]: 0.14
VAARRVLFADEAL [P3A]: 0.316
VAPRRVLFADEAA [L13A]: -0.37

Series 4 — technique: protein-binding microarray; molecule type: double-stranded DNA, one strand shown; sample: in vitro; concentration: 2540 nM top; setting: 60-bp whole probe; with: salmon DNA 0.4 mg/ml; relative to: random background probes; reading: higher = stronger binding; measurement: fitted relative affinity; all sequences stand within: GCCTAGCAC … GTCTTGATTCGCTTGACGCTGCTG
Target: Interferon regulatory factor 3, full length, phosphomimetic (IRF3, Homo sapiens, UniProt Q14653, residues 1-427, S386D/S396D/S398D/S402D/T404D/S405D)
Sequence of UniProt Q14653 (whole entry, unmodified, looked up): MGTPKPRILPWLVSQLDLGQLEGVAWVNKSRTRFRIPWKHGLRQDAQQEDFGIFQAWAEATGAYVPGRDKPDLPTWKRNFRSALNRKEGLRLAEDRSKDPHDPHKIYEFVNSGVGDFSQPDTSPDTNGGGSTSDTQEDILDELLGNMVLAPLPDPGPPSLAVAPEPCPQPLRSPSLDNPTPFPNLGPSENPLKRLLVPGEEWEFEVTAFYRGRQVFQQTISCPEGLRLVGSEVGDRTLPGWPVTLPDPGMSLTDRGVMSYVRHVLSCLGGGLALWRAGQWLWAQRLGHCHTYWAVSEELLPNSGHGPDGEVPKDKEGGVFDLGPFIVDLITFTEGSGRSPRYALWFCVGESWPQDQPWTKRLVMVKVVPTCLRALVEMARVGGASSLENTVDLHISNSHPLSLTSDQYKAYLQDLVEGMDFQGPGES
TTAGGACTGGGTCTTGGTTAGTGCTAG: -0.925 z-score
GACGGTTTCGAGTATCGGGACGTGCTA: 3.44 z-score
GACGATTTCAGAATCGAGACGTGCTAG: 2.57 z-score
GACTGTTTCGGTCTCGGGACGTGCTAG: 7.77 z-score
GACGGTTTCCACACTGGGGACGTGCTA: 4.69 z-score
TTAGGTCTCGTTCTCGGTTAGTGCTAG: 1.81 z-score
TCATTTTTCATTATTGTACTGTGCTAG: 2.51 z-score
GACGGTATCCGACTGCTGACGTGCTAG: 2.36 z-score
TTAGAACTGGGGACTGGATAAGTGCTA: -0.777 z-score
GACGATTTCAGTCTCGACACGTGCTAG: 2.48 z-score
TGGCAGCATTCTTGGAAATCGTGCTAG: -0.768 z-score
GACGGACTGGGACTGCGGACGTGCTAG: -0.965 z-score
TTAGGTTTTGACACTGGGTTAGTGCTA: -0.324 z-score
TTAGGACTTGGTTTCGGTTAGTGCTAG: 4.31 z-score
TACGAACTGGGGACTGGAGACGTGCTA: -0.684 z-score
TTAGATTGCAGTTTCGATTAGTGCTAG: 4.58 z-score
TACTGTGTGCATCTATCTTAGTGCTAG: 0.183 z-score
GCACATGAGCCAAGCCTGCCGTGCTAG: -0.591 z-score
GACGATTCCAGTTTCGAGAGGTGCTAG: 2.51 z-score

Series 5 — technique: universal PBM; molecule type: double-stranded DNA, one strand shown; sample: in vitro; concentration: 600 nM; reading: higher = stronger binding; measurement: E-score
Target: Sal-like protein 4, full length isoform A (SALL4, Homo sapiens, UniProt Q9UJQ4, residues 1-1053)
Sequence of UniProt Q9UJQ4 (whole entry, looked up): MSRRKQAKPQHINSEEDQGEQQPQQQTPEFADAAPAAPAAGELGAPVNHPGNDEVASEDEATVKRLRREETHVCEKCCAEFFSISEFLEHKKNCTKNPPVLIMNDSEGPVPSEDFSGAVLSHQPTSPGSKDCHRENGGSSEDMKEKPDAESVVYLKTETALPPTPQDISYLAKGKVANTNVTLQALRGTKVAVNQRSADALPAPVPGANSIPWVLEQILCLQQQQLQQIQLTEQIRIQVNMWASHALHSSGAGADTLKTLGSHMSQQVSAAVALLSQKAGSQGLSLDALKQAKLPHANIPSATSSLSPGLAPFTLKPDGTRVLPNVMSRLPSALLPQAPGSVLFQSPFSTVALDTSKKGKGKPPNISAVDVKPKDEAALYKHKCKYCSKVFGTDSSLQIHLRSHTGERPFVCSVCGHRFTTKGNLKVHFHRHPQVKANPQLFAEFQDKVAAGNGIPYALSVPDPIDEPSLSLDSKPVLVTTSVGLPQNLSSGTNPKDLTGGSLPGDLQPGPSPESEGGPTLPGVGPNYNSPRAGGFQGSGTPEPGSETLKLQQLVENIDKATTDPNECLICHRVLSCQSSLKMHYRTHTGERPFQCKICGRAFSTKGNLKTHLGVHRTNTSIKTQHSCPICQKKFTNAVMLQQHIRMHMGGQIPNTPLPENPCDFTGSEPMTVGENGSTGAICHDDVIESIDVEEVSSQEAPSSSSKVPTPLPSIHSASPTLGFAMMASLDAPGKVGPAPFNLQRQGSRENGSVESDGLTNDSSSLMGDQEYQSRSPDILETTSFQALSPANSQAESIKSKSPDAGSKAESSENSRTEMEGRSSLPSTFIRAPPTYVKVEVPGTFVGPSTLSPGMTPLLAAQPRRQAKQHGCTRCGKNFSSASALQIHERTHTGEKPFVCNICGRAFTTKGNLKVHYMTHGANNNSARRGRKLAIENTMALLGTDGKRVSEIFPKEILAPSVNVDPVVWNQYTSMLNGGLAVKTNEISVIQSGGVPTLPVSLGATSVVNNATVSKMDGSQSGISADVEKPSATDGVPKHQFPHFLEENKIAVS
Setting: 8-mer, flanks averaged, mean of replicates
CATTGAGC: -0.0898
AAGTGGCC: -0.14
ACCAACAA: 0.0632
CTACCTCC: -0.142
GTTCTTTA: 0.116
AAGACTAT: 0.155
TCGCCTAA: -0.135
ATCTTTGG: 0.0774
CGGTGGAA: -0.21
ACAAAGAA: 0.258
AGTATGAT: 0.307
AAAGTCCT: -0.188
ATACAAAG: 0.304
AGGGCCTA: -0.227
ACTTCCGG: -0.0931
AAGATACG: 0.226
CCCTAGAG: -0.203
CTTCGCAA: 0.0577
ACCATACT: 0.11
CTGAAAAA: 0.107
CAATGAAC: 0.0418
GAGCCCAC: -0.258
CGATCGTA: -0.105
AGGACTTC: -0.116
GAATAAAA: 0.227

Some of these lines once more (series 5):
ACAAAGAA: 0.258
AGTATGAT: 0.307
AAAGTCCT: -0.188
ATACAAAG: 0.304
AGGGCCTA: -0.227
ACTTCCGG: -0.0931
AAGATACG: 0.226
